Assay results collected from several papers.
Protocols differ between the studies behind these lines. ± gives the spread as reported.
ABCG2: Broad substrate specificity ATP-binding cassette transporter ABCG2 (ABCG2, Homo sapiens, UniProt Q9UNQ0)
Sequence of UniProt Q9UNQ0 (whole entry, looked up): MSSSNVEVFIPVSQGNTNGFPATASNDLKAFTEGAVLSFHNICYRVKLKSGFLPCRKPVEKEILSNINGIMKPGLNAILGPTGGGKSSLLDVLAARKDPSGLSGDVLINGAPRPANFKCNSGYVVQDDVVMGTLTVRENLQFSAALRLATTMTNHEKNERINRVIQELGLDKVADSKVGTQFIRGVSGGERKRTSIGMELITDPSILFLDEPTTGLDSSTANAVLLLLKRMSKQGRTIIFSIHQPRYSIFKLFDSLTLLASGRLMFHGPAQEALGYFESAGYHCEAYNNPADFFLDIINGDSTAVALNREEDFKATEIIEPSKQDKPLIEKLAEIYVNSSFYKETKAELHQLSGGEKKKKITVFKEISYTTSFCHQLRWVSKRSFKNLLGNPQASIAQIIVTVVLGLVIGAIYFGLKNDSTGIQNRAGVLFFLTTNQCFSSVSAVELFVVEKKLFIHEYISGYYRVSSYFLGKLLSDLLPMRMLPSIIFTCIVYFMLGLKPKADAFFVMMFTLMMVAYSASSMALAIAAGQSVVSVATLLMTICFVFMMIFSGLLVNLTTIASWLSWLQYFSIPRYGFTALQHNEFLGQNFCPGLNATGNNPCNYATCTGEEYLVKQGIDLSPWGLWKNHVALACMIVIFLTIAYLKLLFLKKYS
CYP3A4: Cytochrome P450 3A4 (CYP3A4, Homo sapiens, UniProt P08684)
Sequence of UniProt P08684 (whole entry, looked up): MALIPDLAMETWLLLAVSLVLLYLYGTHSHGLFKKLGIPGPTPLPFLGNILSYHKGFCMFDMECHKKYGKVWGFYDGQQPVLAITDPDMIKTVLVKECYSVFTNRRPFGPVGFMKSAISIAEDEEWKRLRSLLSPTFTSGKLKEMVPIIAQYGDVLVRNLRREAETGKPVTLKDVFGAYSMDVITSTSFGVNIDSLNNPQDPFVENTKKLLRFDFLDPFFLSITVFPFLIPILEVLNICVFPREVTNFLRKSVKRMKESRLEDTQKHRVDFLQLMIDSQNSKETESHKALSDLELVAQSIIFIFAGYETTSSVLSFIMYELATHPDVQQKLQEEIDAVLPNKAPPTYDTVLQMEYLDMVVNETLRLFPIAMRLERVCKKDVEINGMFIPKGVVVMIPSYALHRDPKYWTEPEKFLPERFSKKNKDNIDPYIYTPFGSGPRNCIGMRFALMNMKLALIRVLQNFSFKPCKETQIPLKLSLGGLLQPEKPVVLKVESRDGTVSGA
CYP2C9: Cytochrome P450 2C9 (CYP2C9, Homo sapiens, UniProt P11712)
Sequence of UniProt P11712 (whole entry, looked up): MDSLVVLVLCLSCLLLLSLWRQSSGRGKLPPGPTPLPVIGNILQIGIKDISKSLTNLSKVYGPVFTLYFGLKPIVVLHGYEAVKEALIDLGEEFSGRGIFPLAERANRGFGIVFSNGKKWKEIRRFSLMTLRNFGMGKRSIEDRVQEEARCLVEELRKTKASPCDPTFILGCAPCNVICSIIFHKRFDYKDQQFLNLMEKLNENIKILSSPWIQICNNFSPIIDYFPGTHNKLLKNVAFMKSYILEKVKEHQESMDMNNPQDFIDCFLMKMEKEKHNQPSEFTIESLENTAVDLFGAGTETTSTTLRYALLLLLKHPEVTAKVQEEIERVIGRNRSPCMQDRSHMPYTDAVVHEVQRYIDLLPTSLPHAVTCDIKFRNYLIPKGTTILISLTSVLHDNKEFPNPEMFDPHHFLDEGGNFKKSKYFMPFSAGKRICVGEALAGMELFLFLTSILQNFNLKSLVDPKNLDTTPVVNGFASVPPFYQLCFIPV
CYP2C8: Cytochrome P450 2C8 (CYP2C8, Homo sapiens, UniProt P10632)
Sequence of UniProt P10632 (whole entry, looked up): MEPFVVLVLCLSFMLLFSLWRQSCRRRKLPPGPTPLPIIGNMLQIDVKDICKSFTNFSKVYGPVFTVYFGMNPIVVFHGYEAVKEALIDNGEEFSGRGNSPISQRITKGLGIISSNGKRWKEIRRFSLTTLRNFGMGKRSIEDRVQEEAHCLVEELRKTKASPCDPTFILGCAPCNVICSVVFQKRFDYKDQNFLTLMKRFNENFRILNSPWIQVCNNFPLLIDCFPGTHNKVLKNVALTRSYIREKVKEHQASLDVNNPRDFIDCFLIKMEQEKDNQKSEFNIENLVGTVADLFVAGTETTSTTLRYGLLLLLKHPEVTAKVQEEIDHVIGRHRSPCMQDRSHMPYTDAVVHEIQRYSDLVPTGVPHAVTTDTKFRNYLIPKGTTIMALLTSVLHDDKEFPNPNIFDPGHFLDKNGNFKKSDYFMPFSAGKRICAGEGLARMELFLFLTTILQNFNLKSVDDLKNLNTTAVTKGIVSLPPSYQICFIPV
Sequence of UniProt P33261 (whole entry, looked up): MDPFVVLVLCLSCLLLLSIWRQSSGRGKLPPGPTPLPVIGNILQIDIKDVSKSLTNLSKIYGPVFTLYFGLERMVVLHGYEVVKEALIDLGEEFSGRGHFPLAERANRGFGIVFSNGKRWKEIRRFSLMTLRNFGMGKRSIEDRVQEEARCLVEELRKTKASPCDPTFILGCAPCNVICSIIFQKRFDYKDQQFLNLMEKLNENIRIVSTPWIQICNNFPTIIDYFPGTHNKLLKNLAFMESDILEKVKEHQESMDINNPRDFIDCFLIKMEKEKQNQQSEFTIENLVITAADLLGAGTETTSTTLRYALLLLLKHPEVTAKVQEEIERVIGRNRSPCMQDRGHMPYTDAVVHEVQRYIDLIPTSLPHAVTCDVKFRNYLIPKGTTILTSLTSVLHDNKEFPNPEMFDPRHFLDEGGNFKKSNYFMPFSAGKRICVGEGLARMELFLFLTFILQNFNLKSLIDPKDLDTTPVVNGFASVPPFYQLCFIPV

`O=C1c2ccccc2-c2c1c1c(O)cc(-c3ccccc3)cc1n2CCc1ccccc1` has an inhibition of 111 ± 2% (ABCG2; mitoxantrone efflux, inhibitor, flow cytometry; HEK293 transfected with ABCG2; 10 µM, 30 min, with: mitoxantrone 5 µM; relative to: Ko143 1 µM).
With `C[C@]12CCC(=O)C[C@@H]1CC[C@@H]1[C@@H]2CC[C@@]2(C)[C@H]1CC[C@@]2(O)C/C=C/C[C@]1(O)CC[C@H]2[C@@H]3CC[C@H]4CC(=O)CC[C@]4(C)[C@H]3CC[C@@]21C` the IC50 was 12 µM (CYP3A4; enzyme activity, inhibitor).
With `COc1ccc(CCn2c3c(c4c(O)cccc42)C(=O)c2ccccc2-3)cc1` the inhibition was 111 ± 14% (ABCG2; mitoxantrone efflux, inhibitor, flow cytometry; HEK293 transfected with ABCG2; 10 µM, 30 min, with: mitoxantrone 5 µM; relative to: Ko143 1 µM).
`CNC(=O)O/N=C/C(C)(C)SC` has an inhibition of less than 0% (CYP2C9; inhibitor; human liver microsomes; 2 µM, pH 7.4, with: diclofenac).
`CC[C@H]1CN2CCc3c([nH]c4cccc(OC)c34)[C@@H]2C[C@@H]1/C(=C\OC)C(=O)OC` gave an IC50 of greater than 45 µM (CYP2C8; enzyme activity, inhibitor; human, liver microsomes).
The inhibition of `CNC(=O)O/N=C/C(C)(C)S(C)(=O)=O` is reported as 6.09% (CYP2C9; inhibitor; human liver microsomes; 10 µM, pH 7.4, with: diclofenac).
The kslow of `Cc1ncc2n1-c1ccc(Cl)cc1C(c1ccccc1F)=NC2` is reported as 0.021 ± 0.003 s⁻¹ (CYP3A4; ligand, stopped flow; 40 µM, pH 7.4, opt-WT variant).
With `CC[C@@H]1CN2CC[C@@]3(O)C(=Nc4cccc(OC)c43)[C@@H]2C[C@@H]1/C(=C\OC)C(=O)OC` the IC50 was greater than 45 µM (CYP2C8; enzyme activity, inhibitor; human, liver microsomes).
`O=C1c2ccccc2-c2c1c1c(O)cccc1n2CCc1ccccc1` has an inhibition of 81 ± 5% (ABCG2; mitoxantrone efflux, inhibitor, flow cytometry; HEK293 transfected with ABCG2; 10 µM, 30 min, with: mitoxantrone 5 µM; relative to: Ko143 1 µM).
The half-life of `C=C(C)[C@@H]1CCC(C)=C[C@H]1c1c(O)cc(CCCCC)cc1O` is reported as 2.27 days (CYP2C19 (Homo sapiens, UniProt P33261); human, plasma; arithmetic mean, with: fluconazole 200 mg once daily).
With `OCc1ncc2n1-c1ccc(Cl)cc1C(c1ccccc1F)=NC2` the AUC ratio was 0.319 (CYP3A4; human; 25 mg once daily, day 10, with: midazolam 7.5 mg; relative to: compound over midazolam).
`CN[C@@](C)(C[18F])C(=O)O` has a tracer uptake of 2.3 %ID/g (A549 tumour model; host not given, bone; 30 min, tumour-bearing).
For `CNC(=O)O/N=C/C(C)(C)[S+](C)[O-]` (centres unmarked), the inhibition was 7.71% (CYP2C9; inhibitor; human liver microsomes; 2 µM, pH 7.4, with: diclofenac).
With `COc1cccc(CCn2c3c(c4c(O)cccc42)C(=O)c2ccccc2-3)c1` the inhibition was 100 ± 10% (ABCG2; mitoxantrone efflux, inhibitor, flow cytometry; HEK293 transfected with ABCG2; 10 µM, 30 min, with: mitoxantrone 5 µM; relative to: Ko143 1 µM).
